# Results collected from several papers.
# Numbered parts are unrelated; each lists some results of a single study. Several values in a cell are separate wells, animals, samples, runs or records.
# UniProt Q13546, sequence (whole entry, looked up): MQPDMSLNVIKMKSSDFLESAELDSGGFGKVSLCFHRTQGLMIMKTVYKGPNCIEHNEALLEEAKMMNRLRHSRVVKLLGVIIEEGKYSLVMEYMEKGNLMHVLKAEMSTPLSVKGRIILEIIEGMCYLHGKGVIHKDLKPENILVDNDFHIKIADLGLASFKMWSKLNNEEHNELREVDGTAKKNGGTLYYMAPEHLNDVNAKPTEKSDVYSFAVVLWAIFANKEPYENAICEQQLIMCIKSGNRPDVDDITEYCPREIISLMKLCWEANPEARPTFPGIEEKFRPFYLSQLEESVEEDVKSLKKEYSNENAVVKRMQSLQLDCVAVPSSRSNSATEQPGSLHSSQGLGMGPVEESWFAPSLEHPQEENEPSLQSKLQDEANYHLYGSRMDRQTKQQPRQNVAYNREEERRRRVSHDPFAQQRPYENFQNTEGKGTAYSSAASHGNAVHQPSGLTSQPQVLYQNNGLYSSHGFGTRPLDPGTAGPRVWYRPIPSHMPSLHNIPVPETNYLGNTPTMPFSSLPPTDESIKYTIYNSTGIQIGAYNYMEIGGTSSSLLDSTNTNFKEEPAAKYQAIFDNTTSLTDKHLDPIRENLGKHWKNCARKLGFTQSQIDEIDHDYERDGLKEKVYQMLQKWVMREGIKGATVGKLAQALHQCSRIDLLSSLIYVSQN
# UniProt P52564, sequence (whole entry, looked up): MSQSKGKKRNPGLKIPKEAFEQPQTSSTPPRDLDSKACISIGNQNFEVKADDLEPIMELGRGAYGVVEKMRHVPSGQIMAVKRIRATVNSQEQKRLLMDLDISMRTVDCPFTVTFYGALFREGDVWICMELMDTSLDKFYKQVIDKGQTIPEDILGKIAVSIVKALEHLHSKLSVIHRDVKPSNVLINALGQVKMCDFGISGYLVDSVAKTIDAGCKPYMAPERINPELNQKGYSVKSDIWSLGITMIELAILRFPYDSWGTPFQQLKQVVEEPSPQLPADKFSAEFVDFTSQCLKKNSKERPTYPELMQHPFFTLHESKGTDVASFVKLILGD
# UniProt Q8N4C8, sequence (whole entry, looked up): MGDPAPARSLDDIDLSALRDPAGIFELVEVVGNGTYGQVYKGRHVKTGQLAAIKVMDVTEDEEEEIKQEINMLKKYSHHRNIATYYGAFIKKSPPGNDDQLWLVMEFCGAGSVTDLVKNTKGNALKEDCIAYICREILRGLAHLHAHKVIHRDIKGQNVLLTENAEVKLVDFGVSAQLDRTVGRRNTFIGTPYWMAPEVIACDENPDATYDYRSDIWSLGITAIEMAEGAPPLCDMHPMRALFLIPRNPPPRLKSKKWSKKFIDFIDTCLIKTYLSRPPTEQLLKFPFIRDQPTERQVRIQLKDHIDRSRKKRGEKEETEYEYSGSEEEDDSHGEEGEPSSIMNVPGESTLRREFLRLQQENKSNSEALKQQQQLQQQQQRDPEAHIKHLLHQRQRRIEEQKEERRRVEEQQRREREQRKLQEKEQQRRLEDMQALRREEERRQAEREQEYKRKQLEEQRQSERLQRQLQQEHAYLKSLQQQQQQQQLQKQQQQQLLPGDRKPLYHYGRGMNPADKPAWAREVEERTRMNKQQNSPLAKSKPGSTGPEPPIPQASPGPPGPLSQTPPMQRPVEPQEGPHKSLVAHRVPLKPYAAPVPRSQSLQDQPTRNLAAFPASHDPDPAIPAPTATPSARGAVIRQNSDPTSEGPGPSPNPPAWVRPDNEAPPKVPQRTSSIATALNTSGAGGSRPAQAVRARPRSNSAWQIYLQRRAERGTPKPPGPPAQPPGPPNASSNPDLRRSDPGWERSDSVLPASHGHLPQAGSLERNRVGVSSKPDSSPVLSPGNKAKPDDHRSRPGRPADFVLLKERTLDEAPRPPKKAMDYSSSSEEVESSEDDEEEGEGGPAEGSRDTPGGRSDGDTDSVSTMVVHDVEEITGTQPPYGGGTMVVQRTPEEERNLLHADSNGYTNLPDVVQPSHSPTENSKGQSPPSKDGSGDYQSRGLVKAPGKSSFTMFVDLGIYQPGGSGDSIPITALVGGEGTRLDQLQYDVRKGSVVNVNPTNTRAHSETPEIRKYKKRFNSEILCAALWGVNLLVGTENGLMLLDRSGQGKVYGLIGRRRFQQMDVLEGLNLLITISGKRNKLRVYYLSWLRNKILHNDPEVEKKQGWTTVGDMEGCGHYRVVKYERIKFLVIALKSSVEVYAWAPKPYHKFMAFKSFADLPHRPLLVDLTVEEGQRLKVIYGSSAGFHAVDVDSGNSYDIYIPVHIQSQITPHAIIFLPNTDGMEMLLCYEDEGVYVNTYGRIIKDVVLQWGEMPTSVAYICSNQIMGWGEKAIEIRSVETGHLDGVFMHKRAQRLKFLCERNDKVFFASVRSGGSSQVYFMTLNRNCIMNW
# UniProt Q13705, sequence (whole entry, looked up): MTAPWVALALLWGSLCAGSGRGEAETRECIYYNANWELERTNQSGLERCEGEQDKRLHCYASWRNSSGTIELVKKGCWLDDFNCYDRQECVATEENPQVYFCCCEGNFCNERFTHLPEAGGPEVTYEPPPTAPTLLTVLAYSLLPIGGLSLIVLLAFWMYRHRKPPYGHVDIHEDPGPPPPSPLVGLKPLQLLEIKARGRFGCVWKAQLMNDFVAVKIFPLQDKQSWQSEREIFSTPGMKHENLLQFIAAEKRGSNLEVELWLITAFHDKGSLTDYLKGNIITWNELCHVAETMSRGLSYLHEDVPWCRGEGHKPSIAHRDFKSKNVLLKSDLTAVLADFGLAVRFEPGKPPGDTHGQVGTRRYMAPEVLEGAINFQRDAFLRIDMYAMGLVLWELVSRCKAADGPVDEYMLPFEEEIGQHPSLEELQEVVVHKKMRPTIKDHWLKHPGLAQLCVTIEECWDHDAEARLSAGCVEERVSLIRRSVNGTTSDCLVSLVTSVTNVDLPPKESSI
# UniProt Q16816, sequence (whole entry, looked up): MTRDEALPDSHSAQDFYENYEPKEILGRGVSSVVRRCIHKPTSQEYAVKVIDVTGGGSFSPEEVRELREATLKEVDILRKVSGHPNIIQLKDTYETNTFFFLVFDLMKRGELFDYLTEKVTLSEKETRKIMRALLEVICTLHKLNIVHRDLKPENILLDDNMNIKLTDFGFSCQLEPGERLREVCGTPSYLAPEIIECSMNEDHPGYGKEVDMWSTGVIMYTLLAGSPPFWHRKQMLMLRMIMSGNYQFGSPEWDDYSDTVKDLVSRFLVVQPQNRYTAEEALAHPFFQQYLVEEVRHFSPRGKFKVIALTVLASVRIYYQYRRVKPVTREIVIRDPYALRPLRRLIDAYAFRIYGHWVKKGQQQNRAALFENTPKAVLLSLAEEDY
# UniProt Q8N5S9, sequence (whole entry, looked up): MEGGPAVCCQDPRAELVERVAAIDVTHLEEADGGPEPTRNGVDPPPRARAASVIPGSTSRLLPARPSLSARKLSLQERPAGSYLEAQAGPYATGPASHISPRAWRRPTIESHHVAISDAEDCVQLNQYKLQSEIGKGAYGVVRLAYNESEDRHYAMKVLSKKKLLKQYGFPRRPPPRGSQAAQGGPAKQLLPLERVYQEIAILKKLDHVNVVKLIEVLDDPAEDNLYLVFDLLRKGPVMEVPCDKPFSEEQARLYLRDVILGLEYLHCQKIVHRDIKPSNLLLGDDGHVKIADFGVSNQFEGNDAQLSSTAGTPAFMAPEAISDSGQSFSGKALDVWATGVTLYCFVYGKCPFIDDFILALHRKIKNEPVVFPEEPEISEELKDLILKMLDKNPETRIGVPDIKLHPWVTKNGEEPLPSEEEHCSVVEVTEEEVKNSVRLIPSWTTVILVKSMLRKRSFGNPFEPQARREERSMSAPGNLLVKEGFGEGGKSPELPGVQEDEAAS
# UniProt P11802, sequence (whole entry, looked up): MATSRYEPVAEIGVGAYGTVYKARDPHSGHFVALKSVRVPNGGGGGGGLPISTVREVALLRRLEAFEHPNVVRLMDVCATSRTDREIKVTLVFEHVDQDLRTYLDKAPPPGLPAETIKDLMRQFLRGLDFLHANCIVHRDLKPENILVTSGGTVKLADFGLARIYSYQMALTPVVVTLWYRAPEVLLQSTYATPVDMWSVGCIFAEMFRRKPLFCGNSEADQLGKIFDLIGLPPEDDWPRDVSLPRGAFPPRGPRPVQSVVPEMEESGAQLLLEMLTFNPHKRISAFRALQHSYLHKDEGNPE
# UniProt O15264, sequence (whole entry, looked up): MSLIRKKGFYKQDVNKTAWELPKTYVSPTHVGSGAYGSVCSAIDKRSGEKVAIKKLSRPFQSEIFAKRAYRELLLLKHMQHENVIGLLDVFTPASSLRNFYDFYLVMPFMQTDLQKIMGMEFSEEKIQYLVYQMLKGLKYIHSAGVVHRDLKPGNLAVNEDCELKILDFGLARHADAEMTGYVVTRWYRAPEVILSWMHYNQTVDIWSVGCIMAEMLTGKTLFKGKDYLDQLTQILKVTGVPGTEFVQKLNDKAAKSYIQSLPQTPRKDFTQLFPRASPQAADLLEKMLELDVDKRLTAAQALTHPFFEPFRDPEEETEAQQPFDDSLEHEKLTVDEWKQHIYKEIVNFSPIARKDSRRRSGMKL

# Set 1 — effect on: enzyme activity; mode: inhibitor; concentration: 0.5 µM; reference: control
# Target: Serine/threonine-protein kinase PLK1 (PLK1, Homo sapiens, UniProt P53350)
# UniProt P53350, sequence (whole entry, looked up): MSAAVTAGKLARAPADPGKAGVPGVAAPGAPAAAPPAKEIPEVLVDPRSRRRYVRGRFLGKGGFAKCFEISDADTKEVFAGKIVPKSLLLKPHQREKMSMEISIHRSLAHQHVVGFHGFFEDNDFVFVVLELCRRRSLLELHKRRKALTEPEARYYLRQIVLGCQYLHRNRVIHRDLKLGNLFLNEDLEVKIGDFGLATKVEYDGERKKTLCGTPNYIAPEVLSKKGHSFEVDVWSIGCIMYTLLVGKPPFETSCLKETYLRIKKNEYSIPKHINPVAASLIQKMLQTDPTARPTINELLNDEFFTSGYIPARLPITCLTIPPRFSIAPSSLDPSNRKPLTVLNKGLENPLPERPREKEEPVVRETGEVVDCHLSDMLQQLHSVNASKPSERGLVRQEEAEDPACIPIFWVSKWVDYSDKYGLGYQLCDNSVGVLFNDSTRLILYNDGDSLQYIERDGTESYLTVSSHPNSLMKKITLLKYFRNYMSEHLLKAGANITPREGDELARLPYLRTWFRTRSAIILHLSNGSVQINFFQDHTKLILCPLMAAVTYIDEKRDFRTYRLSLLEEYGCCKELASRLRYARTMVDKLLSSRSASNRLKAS
SMILES,remaining activity [%]
O=c1c2ccccc2[nH]c(=S)n1CCN1CCC(=C(c2ccc(F)cc2)c2ccc(F)cc2)CC1,100
COc1ccc(C(=O)Nc2sc3c(c2C(N)=O)CCCC3)cc1OC,99
O=C(CCCc1ccc(-c2ccccc2F)cc1)Nc1ccc(O)cc1,95.5
CO[C@H]1C[C@@H]2CC[C@@H](C)[C@@](O)(O2)C(=O)C(=O)N2CCCC[C@H]2C(=O)O[C@H]([C@H](C)C[C@@H]2CC[C@@H](O)[C@H](OC)C2)CC(=O)[C@H](C)/C=C(\C)[C@@H](O)[C@@H](OC)C(=O)[C@H](C)C[C@H](C)/C=C/C=C/C=C/1C,97.8
Nc1ncnc2n[nH]c(Nc3ccc(F)cc3)c12,99.9
Oc1ccc(-c2nc(-c3ccncc3)c(-c3ccc(F)cc3)[nH]2)cc1,100
Cc1ccc(Nc2nccc(N(C)c3ccc4c(C)n(C)nc4c3)n2)cc1S(N)(=O)=O,99.5
Nc1ccc2ncnc(NCCc3ccc(Oc4ccccc4)cc3)c2c1,91.1
CCOC(=O)c1c(C)[nH]c(/C=C2\C(=O)Nc3ccccc32)c1C,107
O=C1NC(=O)C(c2cn(CCCO)c3ncccc23)=C1c1cnccn1,103
O=S(=O)(c1cccc2cnccc12)N1CCCNCC1,103
C#Cc1cccc(Nc2ncnc3cc(OCCOC)c(OCCOC)cc23)c1,100
Cc1cccc(-c2[nH]c(C(C)(C)C)nc2-c2ccc3c(c2)OCO3)n1,105
OCC(O)CCON=C1C(c2c(O)[nH]c3ccccc23)=Nc2ccccc21 (stereo not drawn),103
COc1ccc(CNC(=O)Nc2ncc([N+](=O)[O-])s2)cc1,102
Nc1[nH]nc2nc3ccccc3nc12,94.5

# Set 2 — effect on: binding; concentration: 1 µM
# SMILES: CN1CCN(C(=O)c2ccc(NC(=O)Nc3ccc(N(C)c4ccnc(Nc5ccc(CS(C)(=O)=O)cc5)n4)cc3)cc2)CC1
target,method,remaining binding
"Serine/threonine-protein kinase OSR1 (OXSR1, Homo sapiens, UniProt O95747)",,98%
"Vascular endothelial growth factor receptor 2 (KDR, Homo sapiens, UniProt P35968)",competition with immobilised ligand,1.1%
"Serine/threonine-protein kinase PAK 6 (PAK6, Homo sapiens, UniProt Q9NQU5)",,92%
"Interleukin-1 receptor-associated kinase 1 (IRAK1, Homo sapiens, UniProt P51617)",,58%
"Epidermal growth factor receptor (EGFR, Homo sapiens, UniProt P00533, L861Q)",,92%
"Phosphatidylinositol 4,5-bisphosphate 3-kinase catalytic subunit alpha isoform (PIK3CA, Homo sapiens, UniProt P42336, E545K)",,97%
"Mitogen-activated protein kinase kinase kinase kinase 4 (MAP4K4, Homo sapiens, UniProt O95819)",competition with immobilised ligand,33%
"Glycogen synthase kinase-3 alpha (GSK3A, Homo sapiens, UniProt P49840)",,100%
"Calcium/calmodulin-dependent protein kinase type IV (CAMK4, Homo sapiens, UniProt Q16566)",,100%
"Dual specificity mitogen-activated protein kinase kinase 6 (MAP2K6, Homo sapiens, UniProt P52564)",,82%
"Serine/threonine-protein kinase BRSK2 (BRSK2, Homo sapiens, UniProt Q8IWQ3)",,100%
"Activin receptor type-2B (ACVR2B, Homo sapiens, UniProt Q13705)",competition with immobilised ligand,94%
"Phosphorylase b kinase gamma catalytic chain, skeletal muscle/heart isoform (PHKG1, Homo sapiens, UniProt Q16816)",,100%
"Non-receptor tyrosine-protein kinase TNK1 (TNK1, Homo sapiens, UniProt Q13470)",competition with immobilised ligand,6.7%
"Receptor-interacting serine/threonine-protein kinase 1 (RIPK1, Homo sapiens, UniProt Q13546)",,100%

# Set 3 — effect on: binding; mode: competitor; method: NanoBRET; cells: HEK293
# Structure (SMILES): CN1CCC[C@H]1COc1nc2c(c(N3CCN(S(C)(=O)=O)[C@@H](CC#N)C3)n1)CCN(c1cccc3cccc(Cl)c13)C2
# KRAS G12D: GTPase KRas (KRAS, Homo sapiens, UniProt P01116, G12D)
target,concentration,normalized BRET
KRAS G12D,11.1 µM,75.4% and 54.8% and 70.6%
"GTPase KRas (KRAS, Homo sapiens, UniProt P01116, G13D)",1.24 µM,41.5% and 36.8% and 41%
"GTPase KRas (KRAS, Homo sapiens, UniProt P01116, Q61R)",3.7 µM,69.5% and 64.7% and 91.9%
KRAS G12D,45.7 nM,97.3% and 94.1% and 93.9%
"GTPase KRas (KRAS, Homo sapiens, UniProt P01116, Q61L)",11.1 µM,27.3% and 22.6% and 21.8%
KRAS G12D,1.24 µM,87.6% and 78.6% and 90.2%
KRAS G12D,15.2 nM,92.5% and 91.5% and 94.8%
"GTPase KRas (KRAS, Homo sapiens, UniProt P01116, Q61H)",33.3 µM,11.3% and 8.84% and 7.46%

# Set 4 — effect on: cell-free assay; method: competition with immobilised ligand; concentration: 1 µM
# Structure (SMILES): Cn1nc(C(F)(F)F)cc1-c1cnc(N2CCc3cc(S(=O)(=O)Nc4c(F)cc(Cl)cc4F)cc(N4CCCC4=O)c32)nc1
target,remaining binding [%]
"Testis-specific serine/threonine-protein kinase 1 (TSSK1B, Homo sapiens, UniProt Q9BXA7)",100
"Ephrin type-B receptor 4 (EPHB4, Homo sapiens, UniProt P54760)",99
"Tyrosine-protein kinase Fyn (FYN, Homo sapiens, UniProt P06241)",94
"Mitogen-activated protein kinase 15 (MAPK15, Homo sapiens, UniProt Q8TD08)",78
"Ephrin type-A receptor 6 (EPHA6, Homo sapiens, UniProt Q9UF33)",89
"Tyrosine-protein kinase ABL1, non-phosphorylated (ABL1, Homo sapiens, UniProt P00519, Q252H)",85
"Cyclin-dependent kinase 4, with cyclin D1 (CDK4, Homo sapiens, UniProt P11802)",81
"NUAK family SNF1-like kinase 2 (NUAK2, Homo sapiens, UniProt Q9H093)",89
"Epidermal growth factor receptor (EGFR, Homo sapiens, UniProt P00533)",100
"Serine/threonine-protein kinase pim-3 (PIM3, Homo sapiens, UniProt Q86V86)",100
"Ribosomal protein S6 kinase beta-1 (RPS6KB1, Homo sapiens, UniProt P23443)",78
"Misshapen-like kinase 1 (MINK1, Homo sapiens, UniProt Q8N4C8)",99
"Mitogen-activated protein kinase 13 (MAPK13, Homo sapiens, UniProt O15264)",100
"Calcium/calmodulin-dependent protein kinase kinase 1 (CAMKK1, Homo sapiens, UniProt Q8N5S9)",98
"Activin receptor type-1 (ACVR1, Homo sapiens, UniProt Q04771)",85

# Some of these lines once more (set 2):
target,method,remaining binding
"Glycogen synthase kinase-3 alpha (GSK3A, Homo sapiens, UniProt P49840)",,100%
"Activin receptor type-2B (ACVR2B, Homo sapiens, UniProt Q13705)",competition with immobilised ligand,94%
"Phosphatidylinositol 4,5-bisphosphate 3-kinase catalytic subunit alpha isoform (PIK3CA, Homo sapiens, UniProt P42336, E545K)",,97%
"Receptor-interacting serine/threonine-protein kinase 1 (RIPK1, Homo sapiens, UniProt Q13546)",,100%
"Serine/threonine-protein kinase OSR1 (OXSR1, Homo sapiens, UniProt O95747)",,98%
"Mitogen-activated protein kinase kinase kinase kinase 4 (MAP4K4, Homo sapiens, UniProt O95819)",competition with immobilised ligand,33%
"Interleukin-1 receptor-associated kinase 1 (IRAK1, Homo sapiens, UniProt P51617)",,58%
"Vascular endothelial growth factor receptor 2 (KDR, Homo sapiens, UniProt P35968)",competition with immobilised ligand,1.1%
